{"data": "Measured values gathered from unrelated publications", "medium": "plasma", "note": "Protocols differ between the studies behind these lines."}
{"Compound": "O=C(/C=C/c1ccc(O)cc1)c1ccc(O)cc1O", "system": "Sprague-Dawley rat", "setting": "intravenous, 2 mg/kg, single dose", "half-life": "42 min"}
{"Compound": "CCCC[C@H](NC(C)=O)C(=O)N[C@H]1CCC(=O)NC[C@@H](C(=O)N[C@@H](Cc2c[nH]c3ccccc23)C(N)=O)NC(=O)[C@H](CCCNC(=N)N)NC(=O)[C@@H](Cc2ccccc2)NC(=O)[C@H](Cc2c[nH]cn2)NC1=O", "system": "female rat", "setting": "subcutaneous, 5 mg/kg/day, multiple doses, once daily", "half-life": "557 min"}
{"Compound": "Oc1ccc(/C=C/c2cc(O)cc(O)c2)cc1", "system": "male Sprague-Dawley rat", "setting": "intravenous, 10 mg/kg", "half-life": "20.4 min"}
{"Compound": "CNC(=O)c1c(C)oc2cc(Oc3ncnc4cc(OC)c(OC)cc34)ccc12", "system": "Sprague-Dawley rat", "setting": "oral, 1 mg/kg, single dose", "half-life": "~200 min"}
{"Compound": "Cc1cc(C(=O)NC(C)(C)COc2cccc3c2C(N)=NS(=O)(=O)N3)cc(C)n1", "system": "male Sprague-Dawley rat", "setting": "oral, 30 mg/kg, single dose", "half-life": "40.1 min"}
{"Compound": "CC(=O)O[C@@]12CO[C@@H]1C[C@H](O)[C@@]1(C)C(=O)[C@H](O)C3=C(C)[C@@H](OC(=O)[C@H](O)[C@@H](NC(=O)OC(C)(C)C)c4ccccc4)C[C@@](O)([C@@H](OC(=O)c4ccccc4)[C@H]21)C3(C)C", "system": "male Sprague-Dawley rat", "setting": "intravenous, 10 mg/kg", "half-life": "39.6 min"}
{"Compound": "Cc1nc2cccc(OCC(C)(C)C(=O)NC(C)C)c2c(N)c1C(=O)O", "system": "female Sprague-Dawley rat", "setting": "oral, 30 mg/kg, single dose", "half-life": "63.6 min"}
{"Compound": "CCC[C@@]1(CCc2ccccc2)CC(O)=C([C@H](CC)c2cccc(NS(=O)(=O)c3ccc(C(F)(F)F)cn3)c2)C(=O)O1", "system": "male Sprague-Dawley rat", "setting": "intravenous, 1 mg/kg", "half-life": "313 min"}
{"Compound": "Oc1ccc(C(c2ccc(O)cc2)(C(F)(F)F)C(F)(F)F)cc1", "system": "male rat", "setting": "oral, 110 mg/kg, single dose", "half-life": "1100 min"}
{"Compound": "CCc1c(-c2ccccc2)c(-c2ccccc2)nn1-c1ccccc1-c1cccc(OCC(=O)O)c1", "system": "rat", "setting": "intravenous, 2 mg/kg", "half-life": "106 min"}
{"note": "For quick reference, copied from above:"}
{"Compound": "CCc1c(-c2ccccc2)c(-c2ccccc2)nn1-c1ccccc1-c1cccc(OCC(=O)O)c1", "system": "rat", "setting": "intravenous, 2 mg/kg", "half-life": "106 min"}
